# Measurements of several laboratories.
# Numbered parts are unrelated; each lists some results of a single study. Several values in a cell are separate wells, animals, samples, runs or records. pIC50, pKd: −log10 of the molar value.

# Series 1
# SMILES: Cn1cc(-c2cccc(CN3CCC4(CC3)COc3c4ccc4c3CN([C@H]3CCC(=O)NC3=O)C4=O)c2)cn1
test system,setting,AUC(0-t)
"rat, plasma","oral, 2.98 mg/kg",2770 ng·h/mL
"cynomolgus monkey, plasma","intravenous, 1 mg/kg",860 ng·h/mL
"rat, plasma","intravenous, 1.02 mg/kg",804 ng·h/mL
rat,"oral, 3 mg/kg, approximate dose",1940 ng·h/mL and 2690 ng·h/mL and 3670 ng·h/mL
"cynomolgus monkey, plasma","oral, 3.02 mg/kg",1290 ng·h/mL
cynomolgus monkey,"oral, 3 mg/kg",1120 ng·h/mL and 1150 ng·h/mL and 1600 ng·h/mL
rat,"intravenous, 1 mg/kg, approximate dose",947 ng·h/mL and 721 ng·h/mL and 745 ng·h/mL
cynomolgus monkey,"intravenous, 1 mg/kg",1040 ng·h/mL and 787 ng·h/mL and 754 ng·h/mL

# Series 2
# SMILES: COc1cc(C(=O)OCCCN2CCCN(CCCOC(=O)c3cc(OC)c(OC)c(OCc4ccc([N+](=O)[O-])cc4)c3)CC2)cc(OC)c1OC
# Host: male CD-1 mouse
# Route: subcutaneous
# Dose: dose not given
test system,setting,tissue concentration
trigeminal ganglion,4.5 h,129 ng/mL
dorsal root ganglia,0.5 h,369 ng/mL
trigeminal ganglion,0.1667 h,34.7 ng/mL
dorsal root ganglia,4.5 h,301 ng/mL

# Series 3
# Cell line: HCC1569
# Method: in-cell western
# Measured: CDK1 phospho-Thr14
# Time: 24 h
Compound,pIC50
Cc1ccc(O)c(C)c1-c1cnc2[nH]c(-c3cnc(N4CCC(CN5CCN(c6ccc7c8c(cccc68)C(=O)N7C6CCC(=O)NC6=O)CC5)CC4)nc3)cc2c1C#N (racemic),6.10
Cc1ccc(O)c(C)c1-c1cnc2[nH]c(-c3cnc(N4CCC(CN5CCN(c6ccc(C(=O)NC7CCC(=O)NC7=O)c(F)c6)CC5)CC4)nc3)cc2c1C#N (racemic),6.79
Cc1ccc(O)c(C)c1-c1cnc2[nH]c(-c3cnc(N4CCC(CN5CCN(c6ccc(N7CCC(=O)NC7=O)cc6F)CC5)CC4)nc3)cc2c1C#N,6.88

# Mixed results
# DHAD: Dihydroxy-acid dehydratase, chloroplastic (DHAD, Arabidopsis thaliana, UniProt Q9LIR4)
# Chain of UniProt Q9LIR4 (whole entry, looked up): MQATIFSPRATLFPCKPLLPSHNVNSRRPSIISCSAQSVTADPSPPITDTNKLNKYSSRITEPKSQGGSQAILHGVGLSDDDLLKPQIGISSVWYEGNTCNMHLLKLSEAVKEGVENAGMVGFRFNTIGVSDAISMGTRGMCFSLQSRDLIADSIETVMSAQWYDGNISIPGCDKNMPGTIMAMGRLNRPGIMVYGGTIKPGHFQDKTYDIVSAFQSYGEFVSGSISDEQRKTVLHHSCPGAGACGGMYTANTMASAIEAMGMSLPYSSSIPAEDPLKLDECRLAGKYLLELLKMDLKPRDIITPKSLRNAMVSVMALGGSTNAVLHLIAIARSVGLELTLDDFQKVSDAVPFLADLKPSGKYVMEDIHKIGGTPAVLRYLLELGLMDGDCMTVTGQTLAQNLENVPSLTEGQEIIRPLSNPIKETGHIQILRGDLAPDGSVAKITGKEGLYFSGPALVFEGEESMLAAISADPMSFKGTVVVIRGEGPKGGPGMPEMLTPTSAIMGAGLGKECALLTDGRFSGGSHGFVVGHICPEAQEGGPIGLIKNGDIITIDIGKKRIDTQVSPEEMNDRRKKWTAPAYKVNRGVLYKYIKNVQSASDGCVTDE
SMILES,target or system,test,setting,quantity,result
C#CCN1C(=O)C(O)(C(=O)O)Oc2cc(F)ccc21 (stereo not drawn),Arabidopsis thaliana,,"foliar spray, 200 µg/mL, 20 days",fresh weight inhibition,58.9%
CCCN1C(=O)C(O)(C(=O)O)Oc2cc(F)ccc21 (stereo not drawn),DHAD,microscale thermophoresis,,pKd,5.63
C=CCN1C(=O)C(O)(C(=O)O)Oc2cc(F)ccc21 (stereo not drawn),DHAD,microscale thermophoresis,,pKd,3.39

# A few entries again (series 1):
test system,setting,AUC(0-t)
"cynomolgus monkey, plasma","intravenous, 1 mg/kg",860 ng·h/mL
"rat, plasma","intravenous, 1.02 mg/kg",804 ng·h/mL
